Results of several laboratories.
Compare with care: the assays were run in different laboratories.
MTOR: Serine/threonine-protein kinase mTOR (MTOR, Homo sapiens, UniProt P42345)
MTOR with FKBP12: Serine/threonine-protein kinase mTOR, with FKBP12 (MTOR, Homo sapiens, UniProt P42345)

CNC(=O)C1CCN(c2cc(C)c(F)cc2NC(=O)c2ccc(-c3cc(O)ccc3C)c(C)c2)CC1
remaining binding (MTOR; binding, competition with immobilised ligand; 1 µM): 100%

Cc1cccc(O[C@H]2CCC[C@@H](C(C)CNCc3ccncc3)C2)c1 (relative stereo)
inhibition (MTOR; enzyme activity, inhibitor; 1 µM): 3%

CC(=O)N1c2ccc(-c3ccc(CNC(=O)c4cn5cc(-c6cnc(N)nc6)nc(N6CCOCC6)c5n4)cc3)cc2CC[C@@H]1C
remaining activity (MTOR; enzyme activity, inhibitor, radiometric; 0.1 µM): 108%

COc1cc(Nc2nccc(-c3cnn4nc(OC)ccc34)n2)cc(C(F)(F)F)c1
remaining binding (MTOR; binding, competition with immobilised ligand; 1 µM): 66%

CC(C)=CC1OC(C)(C)C2C=C3C(=O)C(Cl)=CC(O)C3C3C(O)C4OC4C(=O)C132 (stereo not drawn)
remaining binding (MTOR; cell-free assay, competition with immobilised ligand; 10 µM): 75%

C=CC(=O)N1Cc2nc(-c3cc(-c4cc(Cl)cnc4Cl)c(F)cc3F)n(-c3ccncn3)c2C1
inhibition (MTOR; enzyme activity, inhibitor; 1 µM): -1.7%

O=C(Cc1ccc(OCc2ccccc2)cc1)NC1(C(=O)O)CCN(C(=O)c2ccc(-c3cccc(Cl)c3)cc2)CC1
activity vs control (MTOR; enzyme activity, inhibitor; 10 µM): 89%

CNC(=O)C[C@H](Cc1ccc(C#N)cc1)NC(=O)c1cc(-c2ccc(CN[C@H](C)c3ccc(C)cc3)o2)ccc1Cl
remaining activity (MTOR with FKBP12; enzyme activity, KinaseProfiler panel; 1 µM): 109%

CCn1cc(C(=O)O)c(=O)c2c(N)c(F)c(NC3CCCCC3)cc21
inhibition (MTOR; kinase activity; 0.1 µM): -7.3%

COc1c(Cl)cccc1Nc1c(-c2ccncc2C#C[C@@]2(C)CCCN2C(=O)/C=C/CN(C)C)[nH]c2c1C(=O)NCC2
remaining binding (MTOR; cell-free assay, competition with immobilised ligand; 3 µM): 100%

Cc1ccc(-c2c(/C=C(\C#N)C(=O)NC(C)C)n(CCCO)c3ncnc(N)c23)cc1
remaining binding (MTOR; cell-free assay, competition with immobilised ligand; 1 µM): 92%

O=C=[N][Ru-4]123([n]4c5ccc(O)cc5c5c6c(c7cc(F)c[n+]1c7c54)C(=O)NC6=O)[S+]1CC[S+]2CC[S+]3CC1 (stereo not drawn)
remaining activity (MTOR with FKBP12; enzyme activity; 100 nM, human enzyme, with: 10 µM ATP; relative to: untreated): 108%

Cc1nc2c(F)cc(-c3nc(Nc4ccc(CNC(=O)CCCCCCC(=O)NO)cc4)ncc3F)cc2n1C(C)C
inhibition (MTOR with FKBP12; kinase activity; 1 µM): 55%

CS(=O)(=O)Nc1cccc(-c2csc3cnc(Nc4ccc(N5CCN(CCCCCOc6cccc7c6C(=O)N(C6CCC(=O)NC6=O)C7=O)CC5)cc4)nc23)c1 (stereo not drawn)
inhibition (MTOR; kinase activity, cell-based; MOLT-4; 1 µM): -17.7%

Nc1ncc2c(n1)-c1c([nH]c3ccc(C4=CCOCC4)cc13)CCC2
remaining binding (MTOR; binding, competition with immobilised ligand; 1 µM): 92%

For quick reference, copied from above:
CCn1cc(C(=O)O)c(=O)c2c(N)c(F)c(NC3CCCCC3)cc21
inhibition (MTOR; kinase activity; 0.1 µM): -7.3%
